Measurements of several laboratories.
Each numbered part is a random draw from the data of one study; scales do not carry over between parts.
Chain of UniProt Q13404 (whole entry, looked up): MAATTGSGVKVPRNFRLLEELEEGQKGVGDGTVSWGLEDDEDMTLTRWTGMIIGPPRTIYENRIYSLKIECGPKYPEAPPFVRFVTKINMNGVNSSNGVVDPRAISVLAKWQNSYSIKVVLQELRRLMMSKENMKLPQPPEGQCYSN
Chain of UniProt Q8WVN8 (whole entry, looked up): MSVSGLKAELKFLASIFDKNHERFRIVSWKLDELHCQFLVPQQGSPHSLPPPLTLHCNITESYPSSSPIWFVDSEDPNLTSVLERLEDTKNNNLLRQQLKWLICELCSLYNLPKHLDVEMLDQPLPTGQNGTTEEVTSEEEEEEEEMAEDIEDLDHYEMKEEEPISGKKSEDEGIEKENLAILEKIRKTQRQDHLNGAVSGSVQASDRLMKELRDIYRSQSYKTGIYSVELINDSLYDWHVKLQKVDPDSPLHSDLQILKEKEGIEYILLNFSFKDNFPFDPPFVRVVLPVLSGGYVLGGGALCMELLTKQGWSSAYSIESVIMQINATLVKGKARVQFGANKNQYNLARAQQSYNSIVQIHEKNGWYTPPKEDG
Chain of UniProt Q15819 (whole entry, looked up): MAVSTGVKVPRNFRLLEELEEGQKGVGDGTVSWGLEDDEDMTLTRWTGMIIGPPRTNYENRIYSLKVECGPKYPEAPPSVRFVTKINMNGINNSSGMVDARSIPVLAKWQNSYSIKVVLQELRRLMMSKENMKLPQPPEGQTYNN
Chain of UniProt P61088 (whole entry, looked up): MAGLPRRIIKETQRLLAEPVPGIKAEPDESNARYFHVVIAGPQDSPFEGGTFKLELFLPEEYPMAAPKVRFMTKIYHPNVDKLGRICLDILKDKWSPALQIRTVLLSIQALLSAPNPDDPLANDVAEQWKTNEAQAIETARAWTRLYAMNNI
Chain of UniProt P62256 (whole entry, looked up): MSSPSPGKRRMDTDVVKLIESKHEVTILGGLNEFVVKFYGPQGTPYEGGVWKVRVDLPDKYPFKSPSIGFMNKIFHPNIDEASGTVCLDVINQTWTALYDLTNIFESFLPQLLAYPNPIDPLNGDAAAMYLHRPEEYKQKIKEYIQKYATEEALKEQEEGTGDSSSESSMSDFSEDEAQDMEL
Chain of UniProt O14933 (whole entry, looked up): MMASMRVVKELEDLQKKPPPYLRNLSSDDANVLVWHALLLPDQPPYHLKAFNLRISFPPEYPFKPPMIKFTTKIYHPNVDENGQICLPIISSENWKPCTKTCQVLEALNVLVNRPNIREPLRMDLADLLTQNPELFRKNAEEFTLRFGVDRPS
Chain of UniProt P51451 (whole entry, looked up): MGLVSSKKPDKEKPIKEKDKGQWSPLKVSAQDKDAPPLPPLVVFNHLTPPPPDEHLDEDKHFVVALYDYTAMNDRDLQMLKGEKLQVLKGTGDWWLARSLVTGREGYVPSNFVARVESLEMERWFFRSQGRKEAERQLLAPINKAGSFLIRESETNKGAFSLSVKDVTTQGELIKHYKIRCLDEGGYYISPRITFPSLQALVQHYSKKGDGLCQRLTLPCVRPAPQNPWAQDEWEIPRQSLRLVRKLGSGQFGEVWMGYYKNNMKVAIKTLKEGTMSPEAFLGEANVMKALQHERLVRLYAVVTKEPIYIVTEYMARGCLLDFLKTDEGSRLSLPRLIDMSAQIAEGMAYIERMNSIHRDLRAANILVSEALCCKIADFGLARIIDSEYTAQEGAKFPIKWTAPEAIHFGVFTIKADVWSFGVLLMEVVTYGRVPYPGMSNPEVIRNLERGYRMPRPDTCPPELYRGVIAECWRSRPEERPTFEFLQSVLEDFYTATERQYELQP

Set 1 — method: RNA Bind-n-Seq; form: RNA; sample: in vitro; tested at: 365 nM; reference: no-protein control; direction: higher = stronger binding
Target: RNA binding protein fox-1 homolog 2, RRM domain, GST-SBP tag (RBFOX2, Homo sapiens, UniProt O43251-10, residues 100-194)
Notes: natural RNA segment, single round, ends assumed
All sequences stand within: GGGAGUUCUACAGUCCGACGAUC … UGGAAUUCUCGGGUGCCAA
Construct (chain): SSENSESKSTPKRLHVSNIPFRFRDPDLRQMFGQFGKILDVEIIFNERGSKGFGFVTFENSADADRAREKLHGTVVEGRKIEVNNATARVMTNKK
Strand | RBNS enrichment (R)
CCCCUUCUCCCCCCAUCAAAACGCUCAGAGACGUUGUGAUGAUGCGACUGAGGAUUAUGCAACGUGGUCCAACCGGAGCGGCCAGCAUGACCAGCUGUCCAGGGGCUGCC | 4.41
UAUCAAGGCCACUGUGGUAGUGCUUCCCUGAGCAUUCAAUCCCUGGAUCCUGUAGGCCCUGGGAGGGGGUCCCCUUUGUGAAAUAUCAAUGCUGUUUGGGGCCCUCCCCC | 0.253
UUAAAGAAGUGUAUGUUUUCUGAAAGCAAAAGAAUAAAGGAAGGCCCGUCAUUCAGAGACCACUGUGAACAUUUGGAUGUAGAUGCUGUUCUCCCUAACUCUUUGUUCCA | 2.04
AGAAGAAAUGAACUACUGCAACUUAUGAGGAAUCAUGAGAUCCAGCUCACUUUUGCUCAAUACCUAUCAAAAGCUUGUCCCAGAGUGAUUAUGGAGGAUUGCAUGCAGGA | 6.22
ACAAAAUGUAAUUCCGGUUAUUUAAGUCAUUUCUGUGAUUCUAUCAUGUACAGUUUCCAGAAUUGUCACUGUGCAUUCAAAAGUAAUGAAUCUAACAGACAUUUGAUUUA | 0.349
CUGUCAAGAGGCUUGGCUCUUCAAGACUCAGUGUCCACUUUAUCAAAUGUGACCGGUGUAGCUGUAGUUUGUACUUUCCUGGGGACCUUCUGCUGGGGUUUGUGUAAGCU | 0.517
CGAUUCACAGAGGUUUCAGGGGGACCCAAAUCACUGCUGGUUUUCAAUUUUUUUUUAACAAUACAUUUUUGUGGUCAGUUCCAACAGCACUGUCCGUACUUUUAAAACUG | 0.516
UGUGAAAAGAAUUUGUUCAAGGCUUAACAUUUUUGAUACAGACUAAUAAAAUUUAAGAAACAAAGGAUUCUGGGAACAGACAGGAAGGGCCCUAGGUUACAUUUUUGGUG | 0.815

Set 2 — method: aptamer microarray, sandwich; form: DNA with 2'F-ANA; sample: in vitro; tested at: 200 nM; with: Cy3 exosite-II aptamer, 400 nM; direction: higher = stronger binding; strand: GGTTGGTGTGGTTGG
Target: Prothrombin, mature alpha-thrombin (F2, Homo sapiens, UniProt P00734)
Notes: whole 15-mer aptamer, many near background
Modification | mean fluorescence intensity [a.u.]
2'F-ANA at 1 2 3 5 10 14 15 | 48.2
2'F-ANA at 5 7 8 9 11 12 14 15 | 65.8
2'F-ANA at 1 3 6 7 9 10 11 12 14 | 60.7
2'F-ANA at 3 6 7 10 12 15 | 609
2'F-ANA at 1 4 5 7 8 9 13 | 49.6
2'F-ANA at 2 3 4 6 9 10 12 13 14 15 | 131
2'F-ANA at 1 2 4 5 6 7 10 13 14 | 51.8
2'F-ANA at 2 3 4 5 11 | 80.3

Set 3 — Sequence: B1 (TRIM13 RING domain); method: yeast two-hybrid; sample: yeast; notes: mostly zero background; reference: not given; direction: higher = stronger interaction
B1: TRIM13 RING domain (UniProt O60858); chain MELLEEDLTCPICCSLFDDPRVLPCSHNFCKKCLEGILEGSVRNSLWRPAPFKCPTCRKETSATGINS
target | lacZ reporter activity
UBE2H UBC core domain (UniProt P62256) | 0
UBE2Q2 UBC core domain (UniProt Q8WVN8) | 0
UBE2N UBC core domain (UniProt P61088) | 0
UBE2V1 UBC core domain (UniProt Q13404) | 0
UBE2V2 UBC core domain (UniProt Q15819) | 0
UBE2L6 UBC core domain (UniProt O14933) | 0

Further values, each from its own experiment
SMILES | target | test | setting | how to read | measurement | result
O=C(O)/C=C/c1cc(Br)c(Br)c(Br)c1Br | Tyrosine-protein kinase Blk (BLK, Homo sapiens, UniProt P51451) | enzyme activity, inhibitor | 0.5 µM | reference: control | remaining activity | 95.1%

Some of these lines once more (set 2):
Modification | mean fluorescence intensity [a.u.]
2'F-ANA at 2 3 4 6 9 10 12 13 14 15 | 131
2'F-ANA at 1 2 4 5 6 7 10 13 14 | 51.8
2'F-ANA at 2 3 4 5 11 | 80.3
